Published values of several laboratories.
Parts stem from different laboratories: compare values within a part only.

Block 1 — technique: protein-binding microarray; molecule type: double-stranded DNA, one strand shown; sample: in vitro; concentration: 250 nM; setting: 60-bp whole probe; together with: salmon DNA 0.4 mg/ml; baseline: random background probes; reading: higher = stronger binding; all sequences stand within: GCCTAGCAC … GTCTTGATTCGCTTGACGCTGCTG
Target: Interferon regulatory factor 7, full length, phosphomimetic (IRF7, Homo sapiens, UniProt Q92985, residues 1-503, S101K/S471D/S472D/S475D/S476D/S477D/S483D/S484D/S487D)
Construct (chain): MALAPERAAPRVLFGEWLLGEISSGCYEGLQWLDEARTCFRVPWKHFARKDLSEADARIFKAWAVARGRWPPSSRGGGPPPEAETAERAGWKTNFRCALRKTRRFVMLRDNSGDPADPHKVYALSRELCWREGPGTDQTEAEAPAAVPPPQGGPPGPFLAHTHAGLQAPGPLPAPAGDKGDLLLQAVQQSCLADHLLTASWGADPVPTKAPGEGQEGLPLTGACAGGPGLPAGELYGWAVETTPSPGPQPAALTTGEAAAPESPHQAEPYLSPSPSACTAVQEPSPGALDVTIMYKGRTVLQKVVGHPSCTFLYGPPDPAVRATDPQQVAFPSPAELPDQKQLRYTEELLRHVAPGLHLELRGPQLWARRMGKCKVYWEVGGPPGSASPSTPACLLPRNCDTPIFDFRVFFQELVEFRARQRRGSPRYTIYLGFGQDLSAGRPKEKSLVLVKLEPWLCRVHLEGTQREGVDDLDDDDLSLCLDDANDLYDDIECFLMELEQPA
Oligonucleotide | log fluorescence [z-score]
TCAGCTCACACCTGTCATACTGTGCTA | -0.493
GACGGACTGGGTGTCGGGACGTGCTAG | -0.902
TCATTTCTACTTCTCTTACTGTGCTAG | 2.08
GACGGTTTCGACATTGGGGACGTGCTA | 6.47
GACGGTAGCGACACTGGGGACGTGCTA | -0.868
TTAGGTTTCGGTCTCGGTTAGTGCTAG | 8.67
CACGGTTCCCTTTTCCTGACGTGCTAG | 2.96
ATTGCTTTCTCTTTCACTACGTGCTAG | 1.54
ATTCATATATATATGAAAAAGTGCTAG | 0.837

Block 2 — technique: universal PBM; molecule type: double-stranded DNA, one strand shown; sample: in vitro; concentration: not given; reading: higher = stronger binding
Target: Sal-like protein 4, full length isoform B (SALL4, Homo sapiens, UniProt Q9UJQ4-2, residues 1-616)
Setting: 8-mer, flanks averaged, mean of replicates
Residues (chain): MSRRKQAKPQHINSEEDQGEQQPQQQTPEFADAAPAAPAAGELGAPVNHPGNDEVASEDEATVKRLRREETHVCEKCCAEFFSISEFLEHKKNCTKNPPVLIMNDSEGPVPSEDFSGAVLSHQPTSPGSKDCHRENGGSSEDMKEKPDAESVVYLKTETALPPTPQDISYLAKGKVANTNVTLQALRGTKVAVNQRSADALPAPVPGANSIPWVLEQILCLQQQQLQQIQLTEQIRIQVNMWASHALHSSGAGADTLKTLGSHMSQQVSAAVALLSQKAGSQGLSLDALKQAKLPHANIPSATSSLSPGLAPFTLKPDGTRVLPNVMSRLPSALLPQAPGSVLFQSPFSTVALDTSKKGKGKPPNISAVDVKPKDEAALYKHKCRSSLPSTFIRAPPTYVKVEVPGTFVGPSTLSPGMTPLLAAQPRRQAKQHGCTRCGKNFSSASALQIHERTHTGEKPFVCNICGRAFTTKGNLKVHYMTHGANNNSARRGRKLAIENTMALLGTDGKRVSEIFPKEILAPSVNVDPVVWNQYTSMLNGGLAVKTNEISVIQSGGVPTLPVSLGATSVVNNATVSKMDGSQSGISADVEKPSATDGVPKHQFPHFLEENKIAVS
Oligonucleotide | E-score
GCACCATA | 0.0895
CTAGACAC | -0.0131
CGTCGTGA | -0.256
CCTGGTCC | -0.364
GACGGGGC | -0.295
ATCTCGCA | 0.126

Block 3 — technique: protein-binding microarray; molecule type: double-stranded DNA, one strand shown; sample: in vitro; concentration: not given; reading: higher = stronger binding
Target: Transcriptional repressor CTCF (CTCF, Homo sapiens, UniProt P49711, residues 1-727, full length assumed)
UniProt P49711, sequence (whole entry, looked up): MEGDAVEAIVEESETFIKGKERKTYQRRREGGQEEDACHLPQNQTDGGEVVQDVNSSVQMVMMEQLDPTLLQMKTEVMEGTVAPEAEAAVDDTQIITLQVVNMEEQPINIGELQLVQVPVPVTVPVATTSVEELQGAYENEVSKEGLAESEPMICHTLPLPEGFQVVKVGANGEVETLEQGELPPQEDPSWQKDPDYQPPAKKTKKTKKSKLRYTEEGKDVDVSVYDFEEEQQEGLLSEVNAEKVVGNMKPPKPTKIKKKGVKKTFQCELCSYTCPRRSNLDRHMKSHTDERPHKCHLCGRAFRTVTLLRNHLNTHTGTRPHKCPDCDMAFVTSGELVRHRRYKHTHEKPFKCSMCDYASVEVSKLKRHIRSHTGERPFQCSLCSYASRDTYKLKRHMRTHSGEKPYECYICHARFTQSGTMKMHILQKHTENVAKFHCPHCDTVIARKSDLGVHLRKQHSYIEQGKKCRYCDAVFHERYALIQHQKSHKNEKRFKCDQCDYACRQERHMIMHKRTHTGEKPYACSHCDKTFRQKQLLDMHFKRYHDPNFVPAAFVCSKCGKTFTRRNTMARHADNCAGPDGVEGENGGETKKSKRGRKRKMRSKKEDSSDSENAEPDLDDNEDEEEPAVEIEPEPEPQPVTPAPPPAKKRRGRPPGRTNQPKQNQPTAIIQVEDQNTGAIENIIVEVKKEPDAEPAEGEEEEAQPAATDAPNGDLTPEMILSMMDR
Setting: k-mer, scored over probes, only values ≥0.25
Oligonucleotide | E-score
ATACGTAA | 0.263
ATGTAAAC | 0.267
AATACAAT | 0.272
ATAAATAG | 0.278
TATGTGAA | 0.358

Mixed results
Substance | target | assay | test system | conditions | scale | endpoint | value
PhoQ, residues 284 288 289 292 302 303 WSHMKI | PhoP, residues 12 14 15 18 19 LHHSG (Escherichia coli, UniProt P23836) | Sort-seq, measured: YFP reporter | E. coli | PhoQ-PhoP variant library, together with: 10 µM Mg2+ | baseline: high Mg2+ state, higher = stronger signaling | fold induction | 4.98
